Results gathered from unrelated publications.
Each line is one published result; not all experiments were run side by side.
Effect on: metabolic stability

| Structure (SMILES) | system | conditions | half-life [min] |
| --- | --- | --- | --- |
| Cc1ncsc1-c1ccc(CNC(=O)[C@@H]2C[C@@H](O)CN2C(=O)[C@@H](NC(=O)COCCOCCOCCNC(=O)C[C@@H]2N=C(c3ccc(Cl)cc3)c3c(sc(C)c3C)-n3c(C)nnc32)C(C)(C)C)cc1 | rat, liver microsomes | 1 µM | 5.8 |
| CCC(CC)CNC(=N)NC(=N)NCCCCCCNC(=N)NC(=N)NCC(CC)CC | rat, hepatocytes | 1 µM | 129 |
| O=c1c(-c2cnn(-c3ccccc3)c2)c(C(F)(F)F)oc2c(O)c(O)ccc12 | rat, liver microsomes | – | 112 |
| O=C(Nc1cc(-c2ccnc3[nH]ccc23)c(Cl)cn1)[C@H]1CCC[C@@H](NC(=O)C(F)(F)F)C1 | rat, liver microsomes | – | 34.8 |
| CC(C)(C)n1ncc2c(=O)n(Cc3cccc(F)c3)c(NCc3ccc(Cl)nc3)nc21 | rat, liver microsomes | – | 203 |
| CN(C)C(=O)c1ccnc(N2Cc3cn(Cc4cc(F)cc(F)c4)nc3C2)n1 | rat, liver microsomes | – | 907 |
| C=CC(=O)N1CCCC(n2c(=O)c3ncccc3n(Cc3ccc(Oc4ccccc4)cc3)c2=O)C1 (stereo not shown) | male Sprague-Dawley rat, hepatocytes | 1 µM | 4.7 |
| CC(C)(C)n1ncc2c(=O)n(Cc3cccc(F)c3)c(NCc3ccc(C(F)(F)F)nc3)nc21 | rat, liver microsomes | – | 9 |
| CC(=O)Nc1ccnc(N2Cc3cnn(Cc4ccc(F)cc4)c3C2)n1 | rat, liver microsomes | – | 47 |
| COc1ccc(CNc2nc3c(cnn3C(C)(C)C)c(=O)n2Cc2cccc(F)c2)cn1 | rat, liver microsomes | – | 5.7 |
| CN(C)C(=O)c1cccc(N2Cc3cn(Cc4ccc(F)cc4)nc3C2)c1 | rat, liver microsomes | – | 154 |
| CC(C)(C)n1ncc2c(=O)n(Cc3cccc(F)c3)c(NCc3ccccn3)nc21 | rat, liver microsomes | – | 5.3 |
| CN(C)C(=O)c1ccnc(N2Cc3cn(Cc4ccc(F)c(Cl)c4)nc3C2)n1 | rat, liver microsomes | – | 80 |

Some of these lines once more:
| Structure (SMILES) | system | conditions | half-life [min] |
| --- | --- | --- | --- |
| O=C(Nc1cc(-c2ccnc3[nH]ccc23)c(Cl)cn1)[C@H]1CCC[C@@H](NC(=O)C(F)(F)F)C1 | rat, liver microsomes | – | 34.8 |
| CC(C)(C)n1ncc2c(=O)n(Cc3cccc(F)c3)c(NCc3ccc(Cl)nc3)nc21 | rat, liver microsomes | – | 203 |
